# Measurements pooled from the literature.
# Every numbered part comes from another study and shows a few of its results, in no order. Changes are numbered by the printed parent chain.

# Series 1
# Target: ABI1, truncated, D143A, DHFR fusion (Arabidopsis thaliana, UniProt P49597)
# Method: DHFR PCA, dose-response
# Sample: yeast
# Setting: Hill fit, mean, not affinity
# Added: (+)-ABA, dose series
# Direction: lower = more sensitive
# Starting sequence: PYL1, truncated, DHFR fusion (Arabidopsis thaliana, UniProt Q8VZS8); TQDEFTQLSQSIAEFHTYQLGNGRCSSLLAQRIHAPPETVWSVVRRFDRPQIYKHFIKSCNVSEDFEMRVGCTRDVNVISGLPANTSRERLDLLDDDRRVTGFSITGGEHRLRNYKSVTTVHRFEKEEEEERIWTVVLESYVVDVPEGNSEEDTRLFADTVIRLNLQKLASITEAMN
Variant,ABA EC50 [µM]
V121A,529
N114L,646
F5N,7.18
V136D,145
S26T,2.25
D97P,32.7
I52M,3.71
N22T,2.34
L164C,0.711
C60N,365
K126I,1.76
V78I,2.21
T173N,59.6
F124E,4.77
E152W,4.83
F15M,13.5
E14F,32.8
D96P,94.5
D75W,1.11

# Series 2
# Target: Prothrombin, mature alpha-thrombin (F2, Homo sapiens, UniProt P00734)
# Method: aptamer microarray, sandwich
# Form: DNA with 2'F-ANA
# Sample: in vitro
# Concentration: 200 nM
# Setting: whole 15-mer aptamer, many near background
# Added: Cy3 exosite-II aptamer, 400 nM
# Direction: higher = stronger binding
# Sequence: GGTTGGTGTGGTTGG
Modification,mean fluorescence intensity [a.u.]
2'F-ANA at 1 2 3 6 7 9 15,187
2'F-ANA at 2 4 6 7 8 10 15,85
2'F-ANA at 1 2 3 5 8 9 10 14 15,51.2
2'F-ANA at 2 3 6 7 8 11 12 14,440
2'F-ANA at 2 4 7 10 12 14 15,114
2'F-ANA at 2 3 4 5 6 9 12 15,152
2'F-ANA at 2 4 9 11 12 13 15,317
2'F-ANA at 4 5 6 7 11 13 15,50.4
2'F-ANA at 4 5 6 8 9 12 13 14 15,48.4
2'F-ANA at 1 2 3 5 6 7 9 10 11 12 15,52.9
2'F-ANA at 2 5 9 12 13,131
2'F-ANA at 4 5 7 9 10,46.5
2'F-ANA at 1 2 4 5 11 13 14 15,46.1
2'F-ANA at 1 2 4 5 8 10 11 13 15,48.5
2'F-ANA at 1 2 3 4 6 8 9 10 11 12 15,69.8
2'F-ANA at 1 3 4 6 8 12,488
2'F-ANA at 2 3 7 8 9 10 11 12 13,389
2'F-ANA at 1 2 8 9 13 14 15,54.7
2'F-ANA at 1 3 6 10 12 13 15,108
2'F-ANA at 1 2 3 4 5 6 8 10 11 12 13 14 15,48.6
2'F-ANA at 1 2 3 5 7 9 10 12 14 15,170
2'F-ANA at 2 3 4 5 7 9 10 13,46.1
2'F-ANA at 1 3 5 6 7 9 10,44.8
2'F-ANA at 2 3 5 6 9 13 15,60.2
2'F-ANA at 2 3 4 6 8 10 11,197

# Series 3
# Target: Protein max, full length (MAX, Homo sapiens, UniProt P61244-2, residues 1-151)
# Method: protein-binding microarray
# Form: double-stranded DNA, one strand shown
# Sample: in vitro
# Concentration: not given
# Setting: k-mer, scored over probes, only values ≥0.25
# Direction: higher = stronger binding
Sequence,E-score
CGTGCCTC,0.356
ACGTGCAT,0.454
GTGTAGCA,0.302
CACGCACG,0.403
CCCGTGCC,0.316
CACCACGA,0.265
ATACATGC,0.335
CGTGCTAA,0.338
CTACATGC,0.325
CACGTTAA,0.314
AGGGTGGG,0.266
AAGGCCAC,0.259
CACCACGC,0.423
GCATGGAA,0.392
CGGACACG,0.357

# Series 4
# Target: Interferon regulatory factor 7, full length, phosphomimetic (IRF7, Homo sapiens, UniProt Q92985, residues 1-503, S471D/S472D/S475D/S476D/S477D/S483D/S484D/S487D)
# Sequence of UniProt Q92985 (whole entry, unmodified, looked up): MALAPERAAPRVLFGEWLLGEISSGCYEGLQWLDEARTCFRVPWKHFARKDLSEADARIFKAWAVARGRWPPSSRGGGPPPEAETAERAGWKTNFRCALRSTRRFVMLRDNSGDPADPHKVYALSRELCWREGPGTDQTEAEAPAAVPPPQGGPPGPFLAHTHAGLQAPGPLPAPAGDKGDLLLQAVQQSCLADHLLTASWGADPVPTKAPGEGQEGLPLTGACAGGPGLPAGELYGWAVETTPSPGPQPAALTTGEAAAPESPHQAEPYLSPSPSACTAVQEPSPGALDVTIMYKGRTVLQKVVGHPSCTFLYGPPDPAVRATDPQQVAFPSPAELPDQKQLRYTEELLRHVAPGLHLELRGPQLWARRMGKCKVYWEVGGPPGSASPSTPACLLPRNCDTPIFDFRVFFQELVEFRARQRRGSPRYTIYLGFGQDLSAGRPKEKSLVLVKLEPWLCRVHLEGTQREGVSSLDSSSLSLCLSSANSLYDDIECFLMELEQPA
# Method: protein-binding microarray
# Form: double-stranded DNA, one strand shown
# Sample: in vitro
# Concentration: 2200 nM top
# Setting: 60-bp whole probe
# Added: salmon DNA 0.4 mg/ml
# Baseline: random background probes
# Direction: higher = stronger binding
# Constant ends, left off below: GCCTAGCAC … GTCTTGATTCGCTTGACGCTGCTG
Sequence,fitted relative affinity [z-score]
TTTGATTTCAGTCTCGATTAGTGCTAG,1.57
GACGGTATCGGGTATCGGGTCGTGCTA,0.34
GACGGTTTTGGGTATCGGGACGTGCTA,1.28
CCAGTGCTTGCTCCCCTGCAGTGCTAG,-0.346
GACGGTTTCCTCTTCCTGACGTGCTAG,3.43
GACGATTTCAGCCTCGAGACGTGCTAG,0.645
TTAGGTCTCCTACTGCGTTAGTGCTAG,0.391
GACGAACTGGGGTAACGAGACGTGCTA,-0.0974
TCAATTTCTGTTTTTGCACTGTGCTAG,3.99
GGCGGTTTCGACTTTCGGGACGTGCTA,8.4
GACGGTTTCGGGTAGCGGGACGTGCTA,6.35
TTAGGTATCGACTTTCGGCTAGTGCTA,2.08
TTCTTTTCCATTTTGTGTTTGTGCTAG,4.39
TTAGATATCAGACTGGAATAGTGCTAG,-0.446
TTAGGTATCCTAATCCTTTAGTGCTAG,0.484
TCTTTTTGCACTCTCTACATGTGCTAG,2.58
TTAGGACTGCTACTGCTTTGGTGCTAG,-0.0764
TTATATTTTAATCACATATAGTGCTAG,0.431

# Series 5
# Target: CCNE1, cyclin fold, Cln2 fusion (human)
# Method: yeast growth competition, sequencing
# Sample: yeast
# Setting: weak parent motif
# Baseline: not given
# Direction: higher = stronger binding
# Starting sequence: CDC6 docking peptide (human); TLKGRRLVFDNQL
Variant,normalised enrichment score
L13G,0.112
R5N,0.368
D10A,-0.148
R5W,0.0744
L2C,0.202
N11C,1.09
F9E,0.528
Q12K,-0.0538
L7I,0.333
L2F,-0.437
G4A,0.736
T1I,0.337
L7W,0.756
R6V,1.33
N11I,0.172
V8S,0.599
R5D,0.258
N11L,0.452
L2S,-0.282

# Series 6
# Target: RING finger protein unkempt homolog, zinc fingers 1-6, SBP tag (UNK, Homo sapiens, UniProt Q9C0B0, residues 30-357)
# Sequence of UniProt Q9C0B0 (30-357, looked up): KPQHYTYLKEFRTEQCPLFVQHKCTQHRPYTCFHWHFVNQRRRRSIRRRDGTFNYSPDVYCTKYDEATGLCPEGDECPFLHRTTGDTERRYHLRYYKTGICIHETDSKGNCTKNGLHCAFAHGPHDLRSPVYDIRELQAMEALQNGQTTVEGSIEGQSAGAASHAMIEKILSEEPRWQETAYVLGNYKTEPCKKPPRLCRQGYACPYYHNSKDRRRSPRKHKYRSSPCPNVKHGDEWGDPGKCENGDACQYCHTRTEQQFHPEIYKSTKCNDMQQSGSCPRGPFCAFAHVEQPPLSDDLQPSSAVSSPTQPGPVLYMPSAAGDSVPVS
# Method: RNA Bind-n-Seq
# Form: RNA
# Sample: in vitro
# Concentration: 100 nM
# Setting: RNA with constant flanks, vertebrate orthologous sites, ends assumed
# Baseline: input RNA pool
# Direction: higher = stronger binding
# Constant ends, left off below: GGGAGUUCUACAGUCCGACGAUC … CAACAGAGGAUUGAGCAUCA
Sequence,bound/input enrichment
CCUAUACACUUCUCAAGAGAUUUCCUUCUAAGACGCUUUGGCUAGUCCCAUAUUUAACCGUAUUUACAUAUCUAUUUUUUUCUAAGAAUGCCGCUUCCAAGGAGGCCCCUUUCAGGUUCA,1.9 ratio
GUGAGGGUCUACUGGCCACUCACUGUUAUGUCUGGUAUCUGUAAACACUCUUUUUGUUCUUAGUCUUUUUCUUGUAUAAUUGAUGUUCUUUAAAAUUGUUAAUGUAUAACAGGGCUUAUG,2.43 ratio
GGUUGAUGUUCUGAAGAACCACUUAGUAAAAGAAGGUCGGGUAGAUGAAGAAAUUGCACUUAGAAUUAUCAAUGAGGGUGCUGCCAUCCUUCGGAGAGAGAAAACCAUGAUAGAAGUAGA,1.15 ratio
CAAUUCCAUGGUGGAGGGUUCCGAACUCAAAAAGGUUCGGUCCAACUCUCGAAUUUACCACCGCUAUUUCUUACUGGAUGCCGACAUGCAGAGUCUGAGGUGGGAGCCAUCCAAGAAGGA,0.334 ratio
CCGAAAGGCCAAAUUCCCUCCUCCCUUCUACUGCUUCUACCAACUGGAAGCACAGAAAACUAGAAUUUCAUUUAUUUUGUUUUUAAGAAAUACAUGUUGGUUUCUUGUAACAUCCAAUAG,0.498 ratio
CUUUUAAUUGAUGAUGUCUGUAAAUGUAUAUUGAGAGAAUUGAAGUAUUUAUAAACAGAGUGAUUUAUUUAAGGAAAGAAAAGCUCAUUCCUCUUUCACAUGGUGGUCUGUGUUAAUUCC,1.27 ratio
AAAUAUGUUGUACAUUUGAUUAAAAUUAUUUAGAUAAAUAUUACUAUGUUGACUUUUAAAUAGCUUUAUCCUAUUUUUCAUUCAUUUUGCAAAUAUUUGUUGUGUGUAGUUUCUUAACGU,0.553 ratio
ACGUAUCCCAGUUUACUGUGUUGAGUUGGCAUUGUACAGAAAUUAACAGCCAUAUUGGUCUAGAAAUGUUGAACUUAAUUUUUUUCCAUUUGUACAGGGGUAACGCACUGUAUUAAAUAU,0.663 ratio
UCCAGCCUCAGCUGAGUGUUUCACAGCAUUCCUUACACAGCUAUUUAACAAGUACGAGUGGAGUUAACUUUCAGGAUACGUCUAGGCACUCGGCGUUAUCCUGCAGUCCAGUUGCAGAUG,0.159 ratio
GCCCCCCACUCCCUGUGAGAGGGAAUGGGGGAAGCCUGAUGACCCUCAGCUGUUCCAAUCUAGUAUUUUUUUCUUUUUUAAAGUUACUGUAUUUAUUAUGACGAUGGUGACUCCCCAGUG,2.29 ratio
AUCCCUCAGUGACAGUAUGCCAUCUGUAGCAGAUUCCCACUCUAGUCAUUUCUCUGAAUUUAGUUGUUCUGACUUAGAAAGCAUGAAAACUUCUUGCAGUCAUGGUUCCAGUGAUUAUCA,0.998 ratio

# Repeated from above (series 3):
Sequence,E-score
CGTGCCTC,0.356
ACGTGCAT,0.454
GTGTAGCA,0.302
CACGCACG,0.403
CCCGTGCC,0.316
CACCACGA,0.265
ATACATGC,0.335
CGTGCTAA,0.338
CTACATGC,0.325
CACGTTAA,0.314
AGGGTGGG,0.266
AAGGCCAC,0.259
CACCACGC,0.423
GCATGGAA,0.392
CGGACACG,0.357
